Measurements pooled from the literature.
Compare with care: the assays were run in different laboratories. Several values in a cell are separate wells, animals, samples, runs or records. ± marks the error that the study gave. ≈ marks a conversion by molar mass, not a printed value.

SMILES = COC(=O)[C@H](Cc1ccc(O)cc1)NCc1cc2ccccc2nc1SC; organism = Pseudomonas aeruginosa; conditions = 8 µg/mL, with: pentamidine 100 µM; scale = baseline: control; quantity = growth; result = 43.2%
SMILES = C[n+]1cc(NC(=O)c2ccc3ccc4ccc(C(=O)Nc5cc6ccccc6[n+](C)c5)nc4c3n2)cc2ccccc21; organism = Trypanosoma brucei; assay = RNA-seq; test system = Lister 427 bloodstream form; conditions = 2 × EC50, 4 h, ChIP-seq G4 peak overlap; quantity = upregulated G4-containing genes; result = 11 genes
SMILES = COc1ccccc1OCC(=O)N/N=C/C=C/c1ccc([N+](=O)[O-])o1; organism = Mus musculus; assay = gene silencing, high-content imaging; test system = LDR reporter GFP cells; conditions = retest run 2; quantity = maximal activity; result = 225%
SMILES = C[C@@H](Oc1cc(-n2cnc3ccc(OCC4CCN(C)CC4)cc32)sc1C(N)=O)c1ccccc1Cl; organism = Trypanosoma brucei; conditions = unit not given; scale = baseline: pEC50 T. brucei minus pTC50 HepG2; quantity = selectivity; result = 2.7
SMILES = OB(O)c1csc2ccccc12; organism = Listeria monocytogenes; conditions = 100 µM, 10 h; scale = baseline: untreated; quantity = growth; result = 51.8% and 71.2% and 73.5% and 68.3%
SMILES = Nc1nc(-c2ccccc2)nc2[nH]nc(Nc3ccc(C(F)(F)F)cc3)c12; organism = coxsackievirus B3; test system = 31-1-93, NMRI mice, CVB3 chronic myocarditis; conditions = oral, 100 mg/kg twice daily, day 5, dosed days 1 to 7, score scale 0 to 7; scale = direction not given; quantity = clinical score; result = 0.56
SMILES = CC(C)C[C@@H](C=O)NC(=O)[C@H](CC(C)C)NC(=O)[C@H](CC(C)C)NC(=O)OCc1ccccc1; organism = Mus musculus; assay = gene silencing, high-content imaging; test system = LDR reporter GFP cells; conditions = 30 h, retest, mean of two runs; quantity = Emax; result = 135%
SMILES = O=c1[nH]c2ncsc2c(=O)n1O; organism = Digitaria adscendens; conditions = 750 g/ha, 21 days, post-emergence, glasshouse pot; quantity = growth inhibition; result = 0%
SMILES = CC1(C)OC[C@@]2(C)[C@H]3CC[C@@H]4CN(Cc5ccccc5C5CC5)[C@@H](C5=CCOC5=O)C[C@H]4[C@]3(C)CC[C@H]2O1; organism = Human coronavirus 229E; assay = cytopathic effect; test system = MRC5; conditions = 25 µM, corrected for cytotoxicity; quantity = inhibition; result = 76.4%
SMILES = CCCCCCCNC1=C(n2cncn2)C(=O)c2ccccc2C1=O; organism = Aspergillus niger; test system = ITCC 7787; conditions = 10 µg/mL; quantity = zone of inhibition; result = 8 mm
SMILES = NS(=O)(=O)c1ccc(-c2cc3ccncc3cc2OCc2ccccc2)cc1; organism = Trypanosoma brucei; conditions = unit not given; scale = baseline: pEC50 T. brucei minus pTC50 HepG2; quantity = selectivity; result = > 0.7
SMILES = [H]/N=C(\N/C(=N/[H])NCCCCCCNC(=N)NC(=N)Nc1ccc(Cl)cc1)Nc1ccc(Cl)cc1; organism = Streptococcus mutans; conditions = MIC, 120 min, initial pH 7.4; quantity = final pH; result = > 5.5
SMILES = CN1CCC(n2cnc(-c3ccc(F)cc3)c2-c2ccnc(NCCO)n2)CC1; organism = Trypanosoma brucei; conditions = unit not given; scale = baseline: pEC50 T. brucei minus pTC50 HepG2; quantity = selectivity; result = > 1.8
SMILES = Cc1nc2[nH]c(=O)n(O)c(=O)c2s1; organism = Digitaria adscendens; assay = glasshouse pot; conditions = 750 g/ha, 21 days, pre-emergence; quantity = inhibition; result = 0%
SMILES = CC(=O)Oc1ccccc1C(=O)Nc1ncc([N+](=O)[O-])s1; organism = Cryptosporidium parvum; test system = HCT-8; conditions = 9 x EC90, 0 h; scale = baseline: DMSO control; quantity = parasite number; result = 93.3% and 101% and 109% and 96.8%
SMILES = O=c1oc2c(O)c(O)cc3c(=O)oc4c(O)c(O)cc1c4c23; organism = Streptococcus mutans; conditions = MIC, first 15 min, with: glucose 1%; quantity = initial rate of glycolytic pH drop; result = 0.04 pH units/min
SMILES = O=C(O)CCCCCN1C(=O)/C(=C\c2ccc(-c3ccc(Cl)cc3)o2)SC1=S; organism = Mus musculus; assay = gene silencing, high-content imaging; test system = LDR reporter GFP cells; conditions = retest run 1; quantity = maximal activity; result = 51%
SMILES = CCCCN1C[C@H]2CC[C@@H]3[C@]4(C)COC(C)(C)O[C@@H]4CC[C@@]3(C)[C@@H]2C[C@@H]1C1=CCOC1=O; organism = Human coronavirus 229E; assay = cytopathic effect; test system = MRC5; conditions = 25 µM, corrected for cytotoxicity; quantity = inhibition; result = -0.4%
SMILES = Cc1ccc(NC(=O)c2c(C)nc3sc(C(=O)NC4CCCC4)c(N)c3c2-c2ccco2)c(C)c1; organism = Mus musculus; assay = gene silencing, high-content imaging; test system = LDR reporter GFP cells; conditions = retest run 1; quantity = maximal activity; result = 38%
SMILES = CCCN1CCC(Oc2cc(Nc3nc(Nc4cccc(F)c4C(N)=O)c4cc[nH]c4n3)c(OC)cc2Cl)CC1; organism = Trypanosoma brucei; conditions = unit not given; scale = baseline: pEC50 T. brucei minus pTC50 HepG2; quantity = selectivity; result = 1.2
SMILES = CO[C@H]1/C=C/O[C@@]2(C)Oc3c(C)c(O)c4c(c3C2=O)C2=NC3(CCN(CC(C)C)CC3)NC2=C(NC(=O)/C(C)=C\C=C\[C@H](C)[C@H](O)[C@@H](C)[C@@H](O)[C@@H](C)[C@H](OC(C)=O)[C@@H]1C)C4=O; organism = Mycobacteroides abscessus; assay = intracellular growth, Hill fit; test system = THP-1 derived macrophages, ATCC 19977; quantity = IC90; result = 4.3 µM
SMILES = COC(=O)[C@@H](NCc1cc2ccccc2nc1OCc1ccccc1)C(C)C; organism = Pseudomonas aeruginosa; conditions = 16 µg/mL, with: pentamidine 50 µM; scale = baseline: control; quantity = growth; result = 99.3%
SMILES = O=c1[nH]c(CCl)nc2scc(-c3ccc(C(F)(F)F)cc3)c12; organism = Trypanosoma brucei brucei; test system = 449 Lister 427 bloodstream form; conditions = 24 h; scale = baseline: EC50 HEK293 over EC50 T. brucei; quantity = selectivity index; result = 1.8 ± 0.5
SMILES = CC1(C)OC[C@@]2(C)[C@H]3CC[C@@H]4CN(Cc5ccc(F)c(Cl)c5)[C@@H](C5=CCOC5=O)C[C@H]4[C@]3(C)CC[C@H]2O1; organism = Human coronavirus 229E; assay = cytopathic effect; test system = MRC5; conditions = 25 µM, corrected for cytotoxicity; quantity = inhibition; result = 20.7%
SMILES = CC(=O)NC[C@H]1CN(c2ccc(N3CCOCC3)c(F)c2)C(=O)O1; organism = Staphylococcus aureus; assay = time-kill; test system = MRSA NRS123 USA400; conditions = 4 × MIC, 24 h, 37 °C; quantity = CFU decrease; result = 1.89 log10
SMILES = CC1(C)OC[C@@]2(C)[C@H]3CC[C@@H]4CN(Cc5ccc(C(F)(F)F)cc5)[C@@H](C5=CCOC5=O)C[C@H]4[C@]3(C)CC[C@H]2O1; organism = Human coronavirus 229E; assay = cytopathic effect; test system = MRC5; conditions = 25 µM, corrected for cytotoxicity; quantity = inhibition; result = 81.1%
SMILES = COc1cc(N2CCN(C(C)C)CC2)ccc1Nc1nc(Nc2ccc(F)cc2C(N)=O)c2cc[nH]c2n1; organism = Trypanosoma brucei; conditions = unit not given; scale = baseline: pEC50 T. brucei minus pTC50 HepG2; quantity = selectivity; result = 1.4
SMILES = COc1ccnc(CSC(N)=Nc2ccccc2OC)c1.Cl; organism = Mus musculus; assay = gene silencing, high-content imaging; test system = LDR reporter GFP cells; conditions = retest run 1; quantity = maximal activity; result = 99%
SMILES = COc1cc(C#CC(=O)c2ccccc2)ccc1O; organism = Pseudomonas aeruginosa; assay = static biofilm; test system = PA14; conditions = 10 µM, 24 h; scale = baseline: DMSO; quantity = biofilm formation; result = 46%
SMILES = N=C(N)c1ccc(OCc2cc(Br)cc(COc3ccc(C(=N)N)cc3)c2)cc1; organism = Escherichia coli; assay = checkerboard; test system = BW25113; conditions = synergy at FICI ≤0.5, unit not given, with: novobiocin; scale = lower = stronger synergy; quantity = FICI; result = ≤ 0.078
SMILES = CC(C)C[C@@H](/C=C/S(C)(=O)=O)NC(=O)[C@H](CC(C)C)NC(=O)[C@H](CC(C)C)NC(=O)OCc1ccccc1; organism = Mus musculus; assay = gene silencing, high-content imaging; test system = LDR reporter GFP cells; conditions = retest run 2; quantity = maximal activity; result = 107%
SMILES = C=CC[C@@H]1c2ccc(OC)c(OC)c2CN2CCc3cc4c(cc3[C@H]12)OCO4; organism = Staphylococcus aureus; test system = P2rx7+/+ mice, skin wound infection; conditions = dose not given, day 2; scale = baseline: day 0; quantity = relative wound size; result = 0.78 and 0.94 and 0.66 and 0.93 and 0.95
SMILES = Oc1cc(O)c2c(c1)O[C@H](c1cc(O)c(O)c(O)c1)[C@@H](O)C2; organism = Streptococcus mutans; assay = broth microdilution; quantity = MBC/MIC ratio; result = 4
SMILES = CCn1c(=O)c(-c2cc[nH]n2)cc2c(C)nc(N)nc21; organism = Enterovirus A71; assay = histopathology; test system = EV71-infected suckling mice, liver; conditions = 0.25 mg/kg; scale = direction not given; quantity = total pathology score; result = 1
SMILES = O=C(O[C@@H]1O[C@@H]2COC(=O)c3cc(O)c(O)c(O)c3-c3c(cc(O)c(O)c3O)C(=O)O[C@H]([C@H]1O)[C@@H]2O)c1cc(O)c(O)c(O)c1; organism = Streptococcus mutans; assay = broth microdilution; quantity = MBC/MIC ratio; result = 2
SMILES = Cc1cc(OC(C)C)ccc1C(=O)C(C)(C)NC(=O)c1sccc1C; organism = Sclerotinia sclerotiorum; assay = mycelial growth; test system = PSA medium; conditions = 20 °C; quantity = EC50; result = 0.01 µg/mL (≈ 0.0278 µM)
SMILES = COc1cc2c(cc1C(=O)Nc1ccc(C(C)(C)C)cc1)CCCCC2; organism = West Nile virus; assay = viral replication; test system = HEK293; quantity = EC90; result = 1 µM
SMILES = CN(c1ccccc1)S(=O)(=O)c1nnc(NC(=O)c2ccccc2)s1; organism = Mus musculus; assay = gene silencing, high-content imaging; test system = LDR reporter GFP cells; conditions = retest run 2; quantity = maximal activity; result = 180%
SMILES = O=S(=O)(CCOCc1ccc(-c2ccc3ncnc(Nc4ccc(OCc5cccc(F)c5)c(Cl)c4)c3c2)o1)c1ccccc1; organism = Trypanosoma brucei; conditions = unit not given; scale = baseline: pEC50 T. brucei minus pTC50 HepG2; quantity = selectivity; result = > 1.8
SMILES = N=C(N)c1ccc(OCc2ccccc2COc2ccc(C(=N)N)cc2)cc1; organism = Escherichia coli; test system = BW25113; conditions = concentration not given, lowest-FICI combination, with: novobiocin; quantity = MIC in combination; result = 25 µg/mL
SMILES = NS(=O)(=O)c1ccc(Nc2ncc(-c3ccccc3)o2)cc1; organism = Trypanosoma brucei; conditions = unit not given; scale = baseline: pEC50 T. brucei minus pTC50 HepG2; quantity = selectivity; result = > 2.2
SMILES = CN[C@H](CC(C)C)C(=O)N[C@H]1C(=O)N[C@@H](CC(N)=O)C(=O)N[C@H]2C(=O)N[C@H]3C(=O)N[C@H](C(=O)N[C@H](C(=O)O)c4cc(O)cc(O)c4-c4cc3ccc4O)[C@H](O)c3ccc(c(Cl)c3)Oc3cc2cc(c3O[C@@H]2O[C@H](CO)[C@@H](O)[C@H](O)[C@H]2O[C@H]2C[C@](C)(N)[C@H](O)[C@H](C)O2)Oc2ccc(cc2Cl)[C@H]1O; organism = Staphylococcus epidermidis; test system = methicillin-resistant, 10 isolates; conditions = serum 75%; quantity = MIC50; result = 4 µg/mL (≈ 2.76 µM)
SMILES = CC(=O)OC[C@@]1(C)[C@H]2CC[C@@H]3CN(Cc4ccc(F)cc4)[C@@H](C4=CCOC4=O)C[C@H]3[C@]2(C)CC[C@H]1OC(C)=O; organism = Human coronavirus 229E; assay = cytopathic effect; test system = MRC5; conditions = 25 µM, corrected for cytotoxicity; quantity = inhibition; result = 77.5%
SMILES = COc1cccc(N2CCN(S(=O)(=O)c3ccc(-n4cnnn4)cc3)CC2)c1; organism = Mus musculus; assay = gene silencing, high-content imaging; test system = LDR reporter GFP cells; conditions = retest run 2; quantity = maximal activity; result = 208%
SMILES = CCCN1CCC(c2ccc(Nc3nc(Nc4cc(F)ccc4C(N)=O)c4cc[nH]c4n3)c(OC)c2)CC1; organism = Trypanosoma brucei; conditions = unit not given; scale = baseline: pEC50 T. brucei minus pTC50 HepG2; quantity = selectivity; result = 1.5
SMILES = CC1(C)OC[C@@]2(C)[C@H]3CC[C@@H]4CN(Cc5ccc(Br)cc5)[C@@H](C5=CCOC5=O)C[C@H]4[C@]3(C)CC[C@H]2O1; organism = Human coronavirus 229E; assay = cytopathic effect; test system = MRC5; conditions = 25 µM, corrected for cytotoxicity; quantity = inhibition; result = 61.5%
SMILES = CC(C)n1ncc2c(C(=O)NCC3(C)CNC3)cc(C3CC3)nc21; organism = Enterovirus D68; assay = viral replication; test system = RD, US/MO/14-18947; conditions = 1000 nM; quantity = plaque reduction; result = 95% and 90%

For quick reference, copied from above:
SMILES = CCCCCCCNC1=C(n2cncn2)C(=O)c2ccccc2C1=O; organism = Aspergillus niger; test system = ITCC 7787; conditions = 10 µg/mL; quantity = zone of inhibition; result = 8 mm
SMILES = Nc1nc(-c2ccccc2)nc2[nH]nc(Nc3ccc(C(F)(F)F)cc3)c12; organism = coxsackievirus B3; test system = 31-1-93, NMRI mice, CVB3 chronic myocarditis; conditions = oral, 100 mg/kg twice daily, day 5, dosed days 1 to 7, score scale 0 to 7; scale = direction not given; quantity = clinical score; result = 0.56
SMILES = COc1ccccc1OCC(=O)N/N=C/C=C/c1ccc([N+](=O)[O-])o1; organism = Mus musculus; assay = gene silencing, high-content imaging; test system = LDR reporter GFP cells; conditions = retest run 2; quantity = maximal activity; result = 225%
